Experimental data gathered from unrelated publications.
Numbered parts are unrelated; each lists some results of a single study. Substitutions count along the parent as printed.

Set 1 — technique: protein-binding microarray; molecule type: hairpin DNA; medium: in vitro; tested at: not given; baseline: not given; direction: higher = stronger binding; measurement: median fluorescence
Target: Krueppel-like factor 3, full length (KLF3, Homo sapiens, UniProt P57682, residues 1-345)
Chain of UniProt P57682 (whole entry, looked up): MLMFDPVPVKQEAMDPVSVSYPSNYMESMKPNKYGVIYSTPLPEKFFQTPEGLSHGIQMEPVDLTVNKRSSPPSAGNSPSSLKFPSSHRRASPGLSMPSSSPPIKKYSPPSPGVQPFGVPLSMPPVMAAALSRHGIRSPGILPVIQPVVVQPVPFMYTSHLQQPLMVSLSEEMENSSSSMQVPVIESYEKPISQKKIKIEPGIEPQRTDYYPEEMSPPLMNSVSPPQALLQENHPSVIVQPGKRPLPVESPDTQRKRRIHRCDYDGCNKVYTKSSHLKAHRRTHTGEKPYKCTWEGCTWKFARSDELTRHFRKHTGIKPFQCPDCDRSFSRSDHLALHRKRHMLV
Notes: whole hairpin DNA, median over replicate spots
Oligonucleotide = GAGGCCGACCGCGCTCAGCCTCCTGGCTGAGCGCGGTCGGCCTCACACTC; result = 8010 a.u.
Oligonucleotide = GAGGCCGACCGCGCCCAGCCTCCTGGCTGGGCGCGGTCGGCCTCACACTC (5mC at 38); result = 8810 a.u.
Oligonucleotide = GAGGCCGAGCACGCCCAGCCTCCTGGCTGGGCGTGCTCGGCCTCACACTC; result = 9860 a.u.
Oligonucleotide = GAGGCCGACCGTGCCCAGCCTCCTGGCTGGGCACGGTCGGCCTCACACTC; result = 8950 a.u.
Oligonucleotide = GAGGCCGACGACGCCCAGCCTCCTGGCTGGGCGTCGTCGGCCTCACACTC; result = 8510 a.u.
Oligonucleotide = GAGGCCGACCGCGCGCAGCCTCCTGGCTGCGCGCGGTCGGCCTCACACTC (5mC at 14 30); result = 10700 a.u.
Oligonucleotide = GAGGCCGACCGCGCCCGGCCTCCTGGCCGGGCGCGGTCGGCCTCACACTC; result = 8610 a.u.
Oligonucleotide = GAGGCCCGCCGCGCCCAGCCTCCTGGCTGGGCGCGGCGGGCCTCACACTC; result = 8470 a.u.

Set 2 — technique: RNA Bind-n-Seq; molecule type: RNA; medium: in vitro; tested at: 365 nM; baseline: no-protein control; direction: higher = stronger binding; measurement: RBNS enrichment (R)
Target: RNA binding protein fox-1 homolog 2, RRM domain, GST-SBP tag (RBFOX2, Homo sapiens, UniProt O43251-10, residues 100-194)
Notes: natural RNA segment, single round, ends assumed
All sequences stand within: GGGAGUUCUACAGUCCGACGAUC … UGGAAUUCUCGGGUGCCAA
Residues (chain): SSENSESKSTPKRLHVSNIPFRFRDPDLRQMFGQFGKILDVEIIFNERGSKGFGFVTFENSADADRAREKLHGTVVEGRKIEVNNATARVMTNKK
Oligonucleotide = GCUAUGGAAGAGUUUUGUGUUUUGUUUUUUGUUUUGUUUUUUUUUUUAAUUUAUUGUAGAUGUAAACAGAAUUUUAAAAAUAAAAUAUAAACAUCACUGCACUGUGACUG; result = 0.948
Oligonucleotide = ACAACAUUCAUCAUUUUACAUCCAGCUUUUUCACUUGACUUGUUUUCUCUUAAGCAUUUCUCCAUGCCGUGGCCGUGAGUAGUUCUUCAAAAGCAUGUUUUUGAUAAUUG; result = 32
Oligonucleotide = GGGAUGAACUGCUCCCUCUAGCCUUACUGGCUCUGAUCCACAGGGUUUUGUUUUGUUUUGUUUUGUUUUUUGUUUAAGUCGAGAUAUAAAAACUGAACACGAUAACACUU; result = 0.295
Oligonucleotide = CUUCCCUCUGAGCUGCUCAGAGAGGGUAGCUAGCCCAAUGAUGUGGCCCGUGGACAGGAUAAGCAGAUGCACCUGUGACUGACUGGAGGCGUGUUGCUGUGUAUCCCGGG; result = 0.69
Oligonucleotide = AUUGUUGGCAAUAUAAUCUUGAGAGGCUGGUGGGACUUGGGGAAGGAGCAGGGACAGACAUCUGUUGGUAUUGCCCAGCUCCUGUAUCUGUGAUACAUUCCCUGGCUGAG; result = 0.374
Oligonucleotide = UGGUUAAGUUGGCUUCUGUUUCUAGUUGAGGAGUUUCCUAAAAGUUCAUAACAGUGCCAUUGUCUUUAUAUGAACAUAGACUAGAGAAACCGUCCUCUUUUUCCAUCAUA; result = 0.479
Oligonucleotide = UGACUGGUUCACAAAUAUAUCCACAAAAUGUUUGCAUAUGGAAUAAUAGAAGCAUAUAAAACAUUGUAUGUAAAUUGCAUCUUCAUACUAGCAAACAAGUUAACAAAUGA; result = 0.438
Oligonucleotide = CCUCUGAUGUCGGCGAAUCCUGAAGCACCUGCACCCGAAUCUGGGGCCCAGGGCUGCCCGACCCCCACUCCCAUGGAUGAUGAGGAGCCCCAGACACCAGCUCCUCUGGC; result = 1.48

Set 3 — target: CCNE1, cyclin fold, Cln2 fusion (human); technique: yeast growth competition, sequencing; medium: yeast; notes: strong parent motif; baseline: not given; direction: higher = stronger binding; measurement: normalised enrichment score
Parent: viral docking peptide; KGVKRKLFAEDSS; partner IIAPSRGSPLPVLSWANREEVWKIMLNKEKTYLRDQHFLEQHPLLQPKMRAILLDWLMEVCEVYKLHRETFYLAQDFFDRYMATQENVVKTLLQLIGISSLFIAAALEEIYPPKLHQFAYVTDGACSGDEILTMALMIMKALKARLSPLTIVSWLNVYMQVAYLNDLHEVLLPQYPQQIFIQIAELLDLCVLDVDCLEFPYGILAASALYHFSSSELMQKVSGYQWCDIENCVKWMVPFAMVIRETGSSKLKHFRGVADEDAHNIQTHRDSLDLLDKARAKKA
Substitution = L7N; result = 0.498
Substitution = G2E; result = 6.97
Substitution = G2K; result = 7.52
Substitution = G2C; result = 7.57

Set 4 — target: UBE2A UBC core domain (UniProt P49459); technique: yeast two-hybrid; medium: yeast; notes: mostly zero background; baseline: not given; direction: higher = stronger interaction; measurement: lacZ reporter activity
Chain of UniProt P49459 (whole entry, looked up): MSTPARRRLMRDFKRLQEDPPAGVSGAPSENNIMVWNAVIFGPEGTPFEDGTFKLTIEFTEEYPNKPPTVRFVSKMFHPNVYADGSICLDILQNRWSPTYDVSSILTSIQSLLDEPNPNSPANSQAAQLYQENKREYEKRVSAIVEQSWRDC
B1: TRIM35 RING domain (UniProt Q9UPQ4); chain PSRSFKEELLCAVCYDPFRDAVTLRCGHNFCRGCVSRCWEVQVSPTCPVCKDRASPADLRT
B2: TRIM55 RING domain (UniProt Q9BYV6); chain TMDNLEKQLICPICLEMFTKPVVILPCQHNLCRKCASDIFQASNPYLPTRGGTTMASGGRFRCPSCRHEVVLDRHG
B3: TRIM52 RING domain (UniProt Q96A61); chain PMQTLQEEAVCAICLDYFKDPVSISCGHNFCRGCVTQLWSKEDEEDQNEEEDEWEEEEDEEAV
B4: PEX2 RING domain (UniProt P28328); chain DNTLATSGKECALCGEWPTMPHTIGCEHIFCYFCAKSSFLFDVYFTCPKCGTEVHSLQPLK
B5: RNF32 RING domain (UniProt Q9H0A6); chain SLLQGDSVQPCPICKEEFELRPQVLLSCSHVFHKACLQAFEKFTNKKTCPLCRKNQYQTRVIH
B6: UBE4A RING domain (UniProt Q14139); chain LQQQEEETYADACDEFLDPIMSTLMCDPVVLPSSRVTVDRSTIARHLLSDQTDPFNRSPLTMDQIRPNTELKEKIQRWLAERKQQKEQLE
B7: PHF7 RING domain (UniProt Q9BWX1); chain IQHGHVGEESCILCCEDLSQQSVENIQSPCCSQAIYHRKCIQKYAHTSAKHFFKCPQCNNRKEFPQEML
B8: ANKIB1 RING domain (UniProt Q9P2G1); chain LSPGDLDTSLCDICMCSISVFEDPVDMPCGHDFCRGCWESFLNLKIQEGEAHNIFCPAYDCFQLVPVDIIE
B9: RNF175 RING domain (UniProt Q8N4F7); chain LPTRSLSDNICAVCGQKIIVELDEEGLIENTYQLSCNHVFHEFCIRGWCIVGKKQTCPYCKEKVDLKRMIS
Molecule = B1 (TRIM35 RING domain); result = 0
Molecule = B2 (TRIM55 RING domain); result = 0
Molecule = B3 (TRIM52 RING domain); result = 0
Molecule = B4 (PEX2 RING domain); result = 0
Molecule = B5 (RNF32 RING domain); result = 0
Molecule = FLKKLEQSFMCVCCQELVYQPVTTECFHNVCKDCLQRSFKAQVFSCPACRHDLGQNYIMI (UHRF2 RING domain (UniProt Q96PU4)); result = 0
Molecule = B6 (UBE4A RING domain); result = 0
Molecule = B7 (PHF7 RING domain); result = 0
Molecule = B8 (ANKIB1 RING domain); result = 0
Molecule = B9 (RNF175 RING domain); result = 0
Molecule = QLQDEEDDSLCRICMDAVIDCVLLECGHMVTCTKCGKRMSECPICRQYVVRAVHVF (RNF34 RING domain (UniProt Q969K3)); result = 0
Molecule = SYEDKSNDFVCPICFDMIEEAYMTKCGHSFCYKCIHQSLEDNNRCPKCNYVVDNIDHLY (COP1 RING domain (UniProt Q8NHY2)); result = 0
Molecule = MANWVFCNRCFQPPHRTSCFSLTNCGHVYCDACLGKGKKNECLICKAPCRTVLLSK (RNF212 RING domain (UniProt Q495C1)); result = 0

Repeated from above (set 1):
Oligonucleotide = GAGGCCGACCGCGCTCAGCCTCCTGGCTGAGCGCGGTCGGCCTCACACTC; result = 8010 a.u.
Oligonucleotide = GAGGCCGACCGCGCCCAGCCTCCTGGCTGGGCGCGGTCGGCCTCACACTC (5mC at 38); result = 8810 a.u.
Oligonucleotide = GAGGCCGAGCACGCCCAGCCTCCTGGCTGGGCGTGCTCGGCCTCACACTC; result = 9860 a.u.
Oligonucleotide = GAGGCCGACCGTGCCCAGCCTCCTGGCTGGGCACGGTCGGCCTCACACTC; result = 8950 a.u.
